Experimental data pooled from the literature.
Lines come from different studies, so protocols differ. ± marks the error that the study gave. Converted amounts (≈) assume the structure as drawn.
BCHE: Cholinesterase (BCHE, Equus caballus, UniProt P81908)
Chain of UniProt P81908 (whole entry, looked up): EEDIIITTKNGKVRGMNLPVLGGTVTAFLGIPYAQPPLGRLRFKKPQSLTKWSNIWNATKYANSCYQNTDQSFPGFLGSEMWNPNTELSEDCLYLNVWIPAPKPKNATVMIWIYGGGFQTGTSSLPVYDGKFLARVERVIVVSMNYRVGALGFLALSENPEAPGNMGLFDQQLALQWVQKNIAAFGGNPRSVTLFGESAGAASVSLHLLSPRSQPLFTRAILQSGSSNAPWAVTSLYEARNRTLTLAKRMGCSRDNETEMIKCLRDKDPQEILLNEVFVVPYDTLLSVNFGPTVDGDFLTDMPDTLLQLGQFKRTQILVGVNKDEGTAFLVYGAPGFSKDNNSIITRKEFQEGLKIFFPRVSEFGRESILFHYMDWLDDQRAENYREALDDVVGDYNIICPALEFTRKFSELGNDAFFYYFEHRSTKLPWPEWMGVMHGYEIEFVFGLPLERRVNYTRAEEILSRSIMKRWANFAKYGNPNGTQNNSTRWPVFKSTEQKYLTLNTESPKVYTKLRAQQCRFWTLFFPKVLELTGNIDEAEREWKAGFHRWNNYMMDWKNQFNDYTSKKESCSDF
Chain of UniProt P12822 (whole entry, looked up): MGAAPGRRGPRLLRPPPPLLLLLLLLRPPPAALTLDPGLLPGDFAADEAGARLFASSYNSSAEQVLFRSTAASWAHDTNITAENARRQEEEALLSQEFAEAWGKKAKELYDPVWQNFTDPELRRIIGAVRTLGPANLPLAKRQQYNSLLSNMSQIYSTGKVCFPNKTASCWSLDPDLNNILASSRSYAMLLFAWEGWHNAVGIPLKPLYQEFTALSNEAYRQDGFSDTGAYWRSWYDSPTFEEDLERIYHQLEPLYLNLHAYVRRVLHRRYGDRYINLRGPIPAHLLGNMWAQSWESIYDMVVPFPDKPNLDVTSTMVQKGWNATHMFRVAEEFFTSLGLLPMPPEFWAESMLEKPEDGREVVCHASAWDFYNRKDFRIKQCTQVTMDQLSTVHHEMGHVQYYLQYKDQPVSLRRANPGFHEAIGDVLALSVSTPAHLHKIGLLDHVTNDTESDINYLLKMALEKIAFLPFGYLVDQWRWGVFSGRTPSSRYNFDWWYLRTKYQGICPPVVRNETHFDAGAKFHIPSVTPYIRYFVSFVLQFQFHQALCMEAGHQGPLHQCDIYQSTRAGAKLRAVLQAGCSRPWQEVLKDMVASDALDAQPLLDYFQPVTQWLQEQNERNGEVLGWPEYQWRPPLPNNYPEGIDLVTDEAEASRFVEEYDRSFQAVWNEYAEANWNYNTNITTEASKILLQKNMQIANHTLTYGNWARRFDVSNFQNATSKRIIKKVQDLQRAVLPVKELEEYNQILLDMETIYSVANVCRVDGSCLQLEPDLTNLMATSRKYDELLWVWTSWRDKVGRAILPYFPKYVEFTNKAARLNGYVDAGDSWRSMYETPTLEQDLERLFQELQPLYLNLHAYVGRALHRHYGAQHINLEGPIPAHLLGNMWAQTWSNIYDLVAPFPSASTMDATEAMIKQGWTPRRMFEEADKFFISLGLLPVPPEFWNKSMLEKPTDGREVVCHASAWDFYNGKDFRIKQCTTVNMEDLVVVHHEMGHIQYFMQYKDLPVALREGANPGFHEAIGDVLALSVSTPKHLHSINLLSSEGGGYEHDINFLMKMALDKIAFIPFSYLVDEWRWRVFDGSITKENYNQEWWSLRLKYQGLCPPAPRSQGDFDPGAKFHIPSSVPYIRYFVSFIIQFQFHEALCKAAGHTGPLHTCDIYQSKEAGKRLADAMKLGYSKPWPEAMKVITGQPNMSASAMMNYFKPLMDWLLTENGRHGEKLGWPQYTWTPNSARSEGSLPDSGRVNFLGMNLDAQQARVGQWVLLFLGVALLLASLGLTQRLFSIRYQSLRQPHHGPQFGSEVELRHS
Chain of UniProt Q9UQD0 (whole entry, looked up): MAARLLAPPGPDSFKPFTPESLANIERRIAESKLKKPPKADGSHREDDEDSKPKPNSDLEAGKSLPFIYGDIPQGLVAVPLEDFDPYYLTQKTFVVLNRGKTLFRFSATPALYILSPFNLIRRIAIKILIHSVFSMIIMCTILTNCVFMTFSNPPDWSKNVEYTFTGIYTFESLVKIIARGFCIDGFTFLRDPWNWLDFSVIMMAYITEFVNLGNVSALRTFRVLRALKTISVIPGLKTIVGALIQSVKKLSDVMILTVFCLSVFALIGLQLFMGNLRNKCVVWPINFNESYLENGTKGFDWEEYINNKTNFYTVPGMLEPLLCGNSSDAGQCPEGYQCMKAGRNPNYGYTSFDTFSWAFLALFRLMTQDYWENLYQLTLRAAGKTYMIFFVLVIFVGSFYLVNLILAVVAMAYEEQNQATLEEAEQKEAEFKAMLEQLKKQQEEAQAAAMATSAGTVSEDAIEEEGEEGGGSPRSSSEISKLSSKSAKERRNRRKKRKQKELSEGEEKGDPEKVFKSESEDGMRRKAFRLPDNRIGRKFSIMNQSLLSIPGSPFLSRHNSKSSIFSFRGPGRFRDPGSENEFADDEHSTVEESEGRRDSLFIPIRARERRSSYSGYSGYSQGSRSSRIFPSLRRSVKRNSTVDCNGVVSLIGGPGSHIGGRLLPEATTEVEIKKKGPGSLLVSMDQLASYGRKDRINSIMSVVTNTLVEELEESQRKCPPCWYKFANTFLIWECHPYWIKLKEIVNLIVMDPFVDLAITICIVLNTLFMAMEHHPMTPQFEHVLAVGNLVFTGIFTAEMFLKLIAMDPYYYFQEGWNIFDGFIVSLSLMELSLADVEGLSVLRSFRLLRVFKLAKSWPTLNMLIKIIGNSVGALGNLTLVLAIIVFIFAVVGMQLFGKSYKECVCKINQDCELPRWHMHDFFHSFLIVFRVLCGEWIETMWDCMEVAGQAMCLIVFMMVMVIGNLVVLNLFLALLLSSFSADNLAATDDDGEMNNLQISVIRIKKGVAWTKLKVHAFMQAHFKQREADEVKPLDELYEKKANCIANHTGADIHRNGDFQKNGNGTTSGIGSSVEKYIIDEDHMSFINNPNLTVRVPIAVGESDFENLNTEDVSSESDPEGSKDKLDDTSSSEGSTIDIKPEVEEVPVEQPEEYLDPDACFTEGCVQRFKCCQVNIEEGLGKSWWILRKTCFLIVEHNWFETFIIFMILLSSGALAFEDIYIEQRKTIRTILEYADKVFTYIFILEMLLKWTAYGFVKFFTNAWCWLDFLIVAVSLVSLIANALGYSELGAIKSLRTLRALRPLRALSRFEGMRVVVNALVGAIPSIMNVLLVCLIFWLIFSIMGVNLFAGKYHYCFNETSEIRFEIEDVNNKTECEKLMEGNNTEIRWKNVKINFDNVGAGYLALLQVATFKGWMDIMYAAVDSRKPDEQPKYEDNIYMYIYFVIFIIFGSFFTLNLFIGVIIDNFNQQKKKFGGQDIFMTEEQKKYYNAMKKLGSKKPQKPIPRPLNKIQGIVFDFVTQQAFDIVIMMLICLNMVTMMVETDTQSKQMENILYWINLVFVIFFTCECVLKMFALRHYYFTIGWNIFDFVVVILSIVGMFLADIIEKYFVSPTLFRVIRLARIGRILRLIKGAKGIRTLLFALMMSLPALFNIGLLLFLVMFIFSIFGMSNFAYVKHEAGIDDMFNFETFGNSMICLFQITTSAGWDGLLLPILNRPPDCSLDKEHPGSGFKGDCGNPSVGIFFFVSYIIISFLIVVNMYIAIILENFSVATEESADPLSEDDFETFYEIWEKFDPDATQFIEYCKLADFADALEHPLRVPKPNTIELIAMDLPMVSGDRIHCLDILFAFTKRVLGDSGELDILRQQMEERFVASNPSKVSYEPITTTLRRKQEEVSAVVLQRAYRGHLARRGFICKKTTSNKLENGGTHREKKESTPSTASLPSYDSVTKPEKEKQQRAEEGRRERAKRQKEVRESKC
Chain of UniProt O95870 (whole entry, looked up): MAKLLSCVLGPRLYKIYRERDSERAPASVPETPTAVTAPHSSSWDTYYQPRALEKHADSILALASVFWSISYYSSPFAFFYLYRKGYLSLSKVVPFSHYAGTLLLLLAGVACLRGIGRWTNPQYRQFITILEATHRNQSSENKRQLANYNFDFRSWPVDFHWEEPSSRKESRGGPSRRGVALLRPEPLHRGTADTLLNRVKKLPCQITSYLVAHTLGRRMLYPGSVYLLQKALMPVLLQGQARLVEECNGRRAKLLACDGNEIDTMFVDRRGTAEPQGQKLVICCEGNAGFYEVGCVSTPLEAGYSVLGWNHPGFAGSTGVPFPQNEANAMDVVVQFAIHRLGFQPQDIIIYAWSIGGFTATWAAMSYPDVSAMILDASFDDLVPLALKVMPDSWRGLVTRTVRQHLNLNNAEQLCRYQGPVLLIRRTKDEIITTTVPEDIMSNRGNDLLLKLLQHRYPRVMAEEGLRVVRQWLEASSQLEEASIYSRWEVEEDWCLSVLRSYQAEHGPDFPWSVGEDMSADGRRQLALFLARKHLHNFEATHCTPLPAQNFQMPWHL
Chain of UniProt Q16644 (whole entry, looked up): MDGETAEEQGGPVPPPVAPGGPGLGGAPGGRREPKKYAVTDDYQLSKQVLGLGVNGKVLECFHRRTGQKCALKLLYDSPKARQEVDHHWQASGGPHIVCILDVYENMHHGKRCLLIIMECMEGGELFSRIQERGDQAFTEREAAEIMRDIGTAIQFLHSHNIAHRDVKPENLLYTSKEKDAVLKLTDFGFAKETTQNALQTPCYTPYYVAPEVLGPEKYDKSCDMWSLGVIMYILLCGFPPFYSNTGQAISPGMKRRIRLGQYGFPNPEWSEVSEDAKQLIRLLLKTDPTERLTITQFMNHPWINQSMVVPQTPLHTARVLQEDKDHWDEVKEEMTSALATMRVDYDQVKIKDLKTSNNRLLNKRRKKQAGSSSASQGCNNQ

Compound	tested on	test	test system	conditions	scale	quantity	value
OC[C@H]1[C@@H](O)[C@@H](O)CN1Cc1ccncc1	Lysosomal alpha-mannosidase (Drosophila melanogaster, UniProt Q9VKV1)	–	–	2 mM	–	inhibition	2%
CN[C@](C)(C[18F])C(=O)O	SK-OV-3 tumour model	–	host not given, heart	1 h, tumour-bearing	–	tracer uptake	2.7 %ID/g
C[C@]12CC[C@@H]3c4ccc(O)c(Cl)c4CC[C@H]3[C@@H]1CCC2=O	AKR1C3 (Homo sapiens, UniProt P42330)	enzyme activity, inhibitor, absorbance	–	10 µM, pH 9	–	inhibition	50%
NC(=O)CCCCC=C1C(=O)OC1CCc1ccccc1 (stereo not shown)	Phosphatidylserine lipase ABHD16A (Homo sapiens, UniProt O95870)	enzyme activity in cells, inhibitor	COLO 205	1 µM	–	inhibition	< 30%
Cc1ccc2c(n1)c(-c1cccc(S(C)(=O)=O)c1)c(C)n2C/C(F)=C/CN	LOXL2 (Homo sapiens, UniProt Q9Y4K0)	inhibitor, activity-based probe	healthy human subjects, plasma	oral, 100 mg once daily, 14 days, multiple ascending dose	–	inhibition	≥ 85%
CC(=O)NC(Cc1ccc(Br)c(Cl)c1)C(=O)N[C@@H](C)C(=O)N1CCC[C@H]1C(=O)N1CCC[C@H]1C(=O)N[C@@H](CCC(=O)O)C(=O)N[C@@H](Cc1c[nH]cn1)C(=O)N[C@@H](CO)C(=O)N[C@H](C(=O)N[C@@H](C)C(N)=O)[C@@H](C)OP(=O)(O)O (stereo partly shown)	Cyclin-dependent kinase 2, with cyclin E1 (CDK2, Homo sapiens, UniProt P24941)	enzyme activity, inhibitor	–	10 µM	–	inhibition	0.85%
CCCCCCCCC(=O)NCc1ccc(O)c(OC)c1	mouse mAb 1-D6	antibody binding, indirect competitive ELISA	–	together with: coating antigen 4-OVA	–	IC50	0.224 µg/mL (≈ 0.763 µM)
Cc1ccnc(Nc2c3c(nc4ccccc24)CCC(C)C3)c1 (stereo not shown)	BCHE	enzyme activity, inhibitor	–	100 µM	–	inhibition	-117%
O=C(C[P+]([Au-][Cl])(c1ccccc1)c1ccccc1)[O][Ti+2][O]C(=O)C[P+]([Au-][Cl])(c1ccccc1)c1ccccc1.c1cc[cH-]c1.c1cc[cH-]c1	MAPKAPK3 (Homo sapiens, UniProt Q16644)	kinase activity	–	10 µM	–	inhibition	≥ 50%
N=C(N)NCCC[C@@H]1NC(=O)[C@H](CCCCNC(=O)CC[C@H](NC(=O)CCOCCOCCOCCOCCNC(=O)CN2CCN(CC(=O)O)CCN(CC(=O)O)CCN(CC(=O)O)CC2)C(=O)NCCCC[C@@H]2NC(=O)[C@@H](Cc3ccccc3)NC(=O)[C@H](CC(=O)O)NC(=O)CNC(=O)[C@H](CCCNC(=N)N)NC2=O)NC(=O)[C@@H](Cc2ccccc2)NC(=O)[C@H](CC(=O)O)NC(=O)CNC1=O [indium-111 labelled]	–	–	female athymic nude mouse, U-87 MG tumour	intravenous, 3 µCi, 72 h, U-87 MG glioma xenograft	–	tumour uptake	1.6 %ID/g
Cc1ccnc(Nc2c3c(nc4ccccc24)CCCC3)c1	BCHE	enzyme activity, inhibitor	–	100 µM	–	inhibition	-73.4%
C=CCn1cnc2c(NCc3ccc(C)s3)nc(N[C@H](CC)CO)nc21	CDK2 (Homo sapiens, UniProt P24941)	enzyme activity	–	2 µM	–	inhibition	0 to 15%
c1cncc(Nc2c3c(nc4ccccc24)CCCC3)c1	BCHE	enzyme activity, inhibitor	–	50 µM	–	inhibition	85.8%
CC(C)C[C@H](N)C(=O)N1CCC[C@H]1C(=O)N[C@@H](Cc1ccc(O)cc1)C(=O)N[C@@H](Cc1ccc(O)cc1)C(=O)O	ACE (Oryctolagus cuniculus, UniProt P12822)	inhibitor	rabbit	concentration not given, before incubation with ACE	–	inhibition	91.3 ± 0.03%
N#CC1(c2ccc3c(N)ncnn23)OC(COP(=O)(O)OP(=O)(O)OP(=O)(O)O)C(O)C1O (stereo not shown)	DNA-directed RNA polymerase II subunit RPB1/DNA-directed RNA polymerase II subunit RPB2 (Homo sapiens, UniProt P24928+P30876)	enzyme activity	–	concentration not given	–	inhibition	no inhibition
CCCC[C@H](NC(=O)CNC(=O)CNC(=O)c1ccc(NN)nc1)C(=O)N[C@H]1CC(=O)NCCCC[C@@H](C(N)=O)NC(=O)[C@H](Cc2c[nH]c3ccccc23)NC(=O)[C@H](CCCNC(=N)N)NC(=O)[C@@H](Cc2ccccc2)NC(=O)[C@H](Cc2c[nH]cn2)NC1=O [technetium-99m labelled]	–	–	C57 mouse, B16/F1 melanoma, brain	2 h, together with: L-lysine 12 mg	–	uptake	0.03 ± 0.02 %ID/g
C[C@H](NC(=O)[C@H](CCC(N)=O)NC(=O)[C@H](C)NC(=O)[C@H](CCCCN)NC(=O)[C@H](CCC(N)=O)NC(=O)[C@H](C)NC(=O)[C@H](CCCCN)NC(=O)[C@H](CCC(N)=O)NC(=O)[C@H](C)NC(=O)[C@H](CCC(N)=O)NC(=O)[C@H](CCCCN)NC(=O)[C@H](C)NC(=O)[C@H](CCC(N)=O)NC(=O)[C@H](CCCCN)NC(=O)[C@H](C)NC(=O)[C@H](CCC(N)=O)NC(=O)[C@H](C)NC(=O)[C@H](CCCCN)NC(=O)[C@H](CCC(N)=O)NC(=O)[C@H](C)NC(=O)[C@H](CCCCN)NC(=O)[C@H](CO)NC(=O)[C@H](Cc1ccc(O)cc1)NC(=O)CNC(=O)CNC(=O)CN)C(=O)N[C@@H](CCCCN)C(=O)N[C@@H](CCC(N)=O)C(=O)N[C@@H](C)C(=O)N[C@@H](CCCCN)C(=O)N[C@@H](CCC(N)=O)C(=O)O	–	binding, SPR two-state model	rVλ6Wil fibrils	300 nM	–	ka2	0.0315 s⁻¹
CCN(Cc1ccccc1)C(=O)CCc1nc(CN2CCN(C(=O)Cc3ccc(OC)c(OC)c3)CC2)no1	SCN8A (Homo sapiens, UniProt Q9UQD0)	ion current, inhibitor, patch clamp	–	10 µM	–	inhibition	1.17%
N=C(N)NCCC[C@@H]1NC(=O)[C@H](CCCCNC(=O)CNC(=O)CNC(=O)CNC(=O)CC[C@H](NC(=O)CCOCCOCCOCCOCCNC(=O)CC[C@H](NC(=O)CN2CCN(CC(=O)O)CCN(CC(=O)O)CCN(CC(=O)O)CC2)C(=O)NCCOCCOCCOCCOCCC(=O)N[C@@H](CCC(=O)NCC(=O)NCC(=O)NCC(=O)NCCCC[C@@H]2NC(=O)[C@@H](Cc3ccccc3)NC(=O)[C@H](CC(=O)O)NC(=O)CNC(=O)[C@H](CCCNC(=N)N)NC2=O)C(=O)NCC(=O)NCC(=O)NCC(=O)NCCCC[C@@H]2NC(=O)[C@@H](Cc3ccccc3)NC(=O)[C@H](CC(=O)O)NC(=O)CNC(=O)[C@H](CCCNC(=N)N)NC2=O)C(=O)NCC(=O)NCC(=O)NCC(=O)NCCCC[C@@H]2NC(=O)[C@@H](Cc3ccccc3)NC(=O)[C@H](CC(=O)O)NC(=O)CNC(=O)[C@H](CCCNC(=N)N)NC2=O)NC(=O)[C@@H](Cc2ccccc2)NC(=O)[C@H](CC(=O)O)NC(=O)CNC1=O [indium-111 labelled]	–	–	athymic nude mice, female, U-87 MG glioma xenograft, tumour and liver	intravenous, 72 h	relative to: tumour over liver	tumour to tissue ratio	10.7 ± 1.45
